{"data": "Measurements pooled from the literature", "note": "Compare with care: the assays were run in different laboratories. ± gives the spread as reported."}
{"Compound": "CC(=O)NCCCCNC(=O)C[C@H](Cc1ccc(F)cc1)NC(=O)[C@@H](Cc1ccc(Cl)cc1Cl)NC(=O)[C@H](N)Cc1ccccc1C#N", "organism": "SARS-CoV-2", "assay": "viral replication", "test system": "USA-WA1/2020", "quantity": "EC50", "result": "5500 nM"}
{"Compound": "O=C(NC1CCN(c2ncnc3[nH]cnc23)CC1)c1cccc(NS(=O)(=O)c2ccc(Cl)cc2)c1", "organism": "SARS-CoV-2", "assay": "viral replication", "test system": "Wuhan-Hu-1", "quantity": "EC50", "result": "1370 nM"}
{"Compound": "N#Cc1ccccc1C[C@@H](N)C(=O)N[C@H](Cc1ccc(Cl)cc1Cl)C(=O)N[C@H](CC(=O)NCCc1c[nH]cn1)Cc1ccc(F)cc1", "organism": "SARS-CoV-2", "assay": "viral replication", "test system": "USA-WA1/2020", "quantity": "EC50", "result": "3100 nM"}
{"Compound": "Cc1ccc(S(=O)(=O)Nc2cccc(C(=O)NC3CCN(c4ncnc5[nH]cnc45)CC3)c2)cc1Cl", "organism": "SARS-CoV-2", "assay": "viral replication", "test system": "Wuhan-Hu-1", "quantity": "EC50", "result": "2320 nM"}
{"Compound": "CC[C@H](C)[C@H](NC(=O)[C@H](C)NC(=O)[C@H](CCC(=O)O)NC(=O)[C@H](CCC(=O)O)NC(=O)[C@H](CC(C)C)NC(=O)[C@H](CCCCN)NC(=O)[C@H](CCCCN)NC(=O)[C@H](CCSC)NC(=O)[C@H](CCC(=O)O)NC(=O)[C@H](Cc1ccc(O)cc1)NC(=O)[C@H](CCC(=O)O)NC(=O)[C@H](CC(C)C)NC(=O)[C@H](CC(=O)O)NC(=O)[C@H](CC(C)C)NC(=O)[C@H](Cc1ccccc1)NC(=O)[C@H](Cc1ccccc1)NC(=O)[C@@H](NC(=O)[C@H](CC(N)=O)NC(=O)[C@@H](NC(=O)[C@H](CCC(N)=O)NC(=O)[C@H](CC(=O)O)NC(=O)[C@H](CC(C)C)NC(=O)[C@@H](N)CO)[C@@H](C)CC)C(C)C)C(=O)N[C@@H](CCCCN)C(=O)N[C@@H](CCCCN)C(=O)N[C@@H](CC(C)C)C(=O)N[C@@H](CCC(=O)O)C(=O)N[C@@H](CCC(=O)O)C(=O)N[C@@H](C)C(=O)N[C@@H](Cc1ccc(O)cc1)C(=O)N[C@H](C(=O)N[C@@H](CC(=O)O)C(=O)N[C@@H](CC(C)C)C(=O)N[C@@H](CCCCN)C(=O)N[C@@H](CCC(=O)O)C(=O)N[C@@H](CC(C)C)C(=O)O)[C@@H](C)CC", "organism": "SARS-CoV-2 Alpha pseudovirus", "assay": "pseudovirus infection, inhibitor, luciferase", "test system": "Caco-2", "conditions": "24 h, dual mutations", "quantity": "IC50", "result": "349 nM"}
{"Compound": "O=C(Nc1ccc(F)cc1)C1C(=O)N(O)C(=O)c2cc([N+](=O)[O-])ccc21 (stereo not shown)", "organism": "SARS-CoV-2", "assay": "viral replication", "test system": "VeroE6-TMPRSS2", "quantity": "EC50", "result": "> 50000 nM"}
{"Compound": "N#Cc1ccccc1C[C@@H](N)C(=O)N[C@H](Cc1ccc(Cl)cc1Cl)C(=O)N[C@H](CC(=O)NCCCCN1CCOCC1)Cc1ccc(F)cc1", "organism": "SARS-CoV-2", "assay": "viral replication", "test system": "USA-WA1/2020", "quantity": "EC50", "result": "1400 nM"}
{"Compound": "O=C(NCc1ccccc1)C1C(=O)N(O)C(=O)c2cc([N+](=O)[O-])ccc21 (stereo not shown)", "organism": "SARS-CoV-2", "assay": "viral replication", "test system": "VeroE6-TMPRSS2", "quantity": "EC50", "result": "> 50000 nM"}
{"Compound": "O=C(NC1CCN(c2ncnc3[nH]cnc23)CC1)c1cccc(NS(=O)(=O)c2ccc([N+](=O)[O-])cc2)c1", "organism": "SARS-CoV-2", "assay": "viral replication", "test system": "Wuhan-Hu-1", "quantity": "EC50", "result": "1030 nM"}
{"Compound": "N#Cc1ccccc1C[C@@H](N)C(=O)N[C@H](Cc1ccc(Cl)cc1Cl)C(=O)N[C@H](CC(=O)NCCCCC(=O)O)Cc1ccc(F)cc1", "organism": "SARS-CoV-2", "assay": "viral replication", "test system": "USA-WA1/2020", "quantity": "EC50", "result": "> 10000 nM"}
{"Compound": "O=C(O)C(O)=CC(=O)C1(Cc2ccc(Cl)cc2)CCN(C(=O)C=Cc2ccccc2)CC1", "organism": "SARS-CoV-2", "assay": "viral replication", "test system": "VeroE6-TMPRSS2", "quantity": "EC50", "result": "> 50000 nM"}
{"Compound": "CC[C@H](C)[C@H](NC(=O)[C@H](C)NC(=O)[C@H](CCC(=O)O)NC(=O)[C@H](CCC(=O)O)NC(=O)[C@H](CC(C)C)NC(=O)[C@H](CCCCN)NC(=O)[C@H](CCCCN)NC(=O)[C@H](CCSC)NC(=O)[C@H](CCC(=O)O)NC(=O)[C@H](Cc1ccc(O)cc1)NC(=O)[C@H](CCC(=O)O)NC(=O)[C@H](CC(C)C)NC(=O)[C@H](CC(=O)O)NC(=O)[C@H](CC(C)C)NC(=O)[C@H](Cc1ccccc1)NC(=O)[C@H](Cc1ccc(O)cc1)NC(=O)[C@@H](NC(=O)[C@H](CC(N)=O)NC(=O)[C@@H](NC(=O)[C@H](CCC(N)=O)NC(=O)[C@H](CC(=O)O)NC(=O)[C@H](CC(C)C)NC(=O)[C@@H](N)CO)[C@@H](C)CC)C(C)C)C(=O)N[C@@H](CCCCN)C(=O)N[C@@H](CCCCN)C(=O)N[C@@H](CC(C)C)C(=O)N[C@@H](CCC(=O)O)C(=O)N[C@@H](CCC(=O)O)C(=O)N[C@@H](CO)C(=O)N[C@@H](Cc1ccc(O)cc1)C(=O)N[C@H](C(=O)N[C@@H](CC(=O)O)C(=O)N[C@@H](CC(C)C)C(=O)N[C@@H](CCCCN)C(=O)N[C@@H](CCC(=O)O)C(=O)N[C@@H](CC(C)C)C(=O)O)[C@@H](C)CC", "organism": "SARS-CoV-2 Alpha pseudovirus", "assay": "pseudovirus infection, inhibitor, luciferase", "test system": "Caco-2", "conditions": "24 h", "quantity": "IC50", "result": "623 nM"}
{"Compound": "CC[C@H](C)[C@@H]1NC(=O)[C@H](Cc2c[nH]cn2)NC(=O)[C@H](Cc2ccc(O)cc2)NC(=O)[C@H](Cc2ccc(O)cc2)NC(=O)[C@H](C(C)C)NC(=O)[C@H](Cc2c[nH]cn2)NC(=O)[C@H](CCCCN)NC(=O)[C@H]([C@@H](C)O)NC(=O)[C@H](Cc2ccc(O)cc2)NC(=O)CSC[C@@H](C(N)=O)NC(=O)[C@H](Cc2ccc(O)cc2)NC(=O)[C@H](C(C)C)NC(=O)[C@H](CC(C)C)NC(=O)[C@H](Cc2ccc(O)cc2)NC(=O)[C@H]([C@@H](C)CC)NC(=O)[C@H]([C@@H](C)O)NC1=O", "organism": "SARS-CoV-2", "assay": "viral replication", "test system": "HEK293-ACE2-TMPRSS2", "quantity": "EC50", "result": "33100 nM"}
{"Compound": "CC(C)(C)O[C@@H]1C[C@@H](C(=O)N[C@H](Cc2ccccc2)C(=O)C(=O)NCc2ccc(Cl)cn2)N(C(=O)[C@@H](NC(=O)C2CCC(F)(F)CC2)C2CCCCC2)C1", "organism": "SARS-CoV-2", "assay": "viral replication", "test system": "wild type", "quantity": "EC50", "result": "19800 ± 25200 nM"}
{"Compound": "O=C(O)C(O)=CC(=O)c1ccc(O)c(O)c1", "organism": "SARS-CoV-2", "assay": "viral replication", "test system": "VeroE6-TMPRSS2", "quantity": "EC50", "result": "> 50000 nM"}
{"Compound": "Cc1cncc(C(=O)N2CCN(C3c4ccccc4CCc4ccccc43)CC2)c1", "organism": "SARS-CoV-2", "assay": "viral replication", "test system": "USA-WA1/2020", "quantity": "EC50", "result": "360 nM"}
{"note": "For quick reference, copied from above:"}
{"Compound": "O=C(NC1CCN(c2ncnc3[nH]cnc23)CC1)c1cccc(NS(=O)(=O)c2ccc([N+](=O)[O-])cc2)c1", "organism": "SARS-CoV-2", "assay": "viral replication", "test system": "Wuhan-Hu-1", "quantity": "EC50", "result": "1030 nM"}
